Measured values pooled from the literature.
Protocols differ between the studies behind these lines.
Target: Serine/threonine-protein kinase TAO1 (TAOK1, Homo sapiens, UniProt Q7L7X3)

SMILES = O=C=[N][Ru-4]123([n]4c5ccc(O)cc5c5c6c(c7cc(F)c[n+]1c7c54)C(=O)NC6=O)[S+]1CC[S+]2CC[S+]3CC1 (stereo not shown); test = enzyme activity; conditions = 100 nM, human enzyme, added: 10 µM ATP; how to read = reference: untreated; quantity = remaining activity; result = 105%
SMILES = NC(=O)[C@@H](O)C[C@H]1CCc2sc3ncnc(O[C@H]4CC[C@H](N5CCOCC5)CC4)c3c21; test = enzyme activity, inhibitor; conditions = 10 µM; quantity = inhibition; result = 2%
SMILES = CNC(=O)C1CCN(c2cc(C)c(F)cc2NC(=O)c2ccc(-c3cc(O)ccc3C)c(C)c2)CC1; test = binding, competition with immobilised ligand; conditions = 1 µM; quantity = remaining binding; result = 95%
SMILES = COc1ccc(C(=O)/C=C/c2ccccc2-c2c[nH]c3ccc(C#N)cc23)c(O)c1; test = enzyme activity, inhibitor; conditions = 20 µM; quantity = inhibition; result = -12%
SMILES = CNC(=O)C[C@H](Cc1ccc(C#N)cc1)NC(=O)c1cc(-c2ccc(CN[C@H](C)c3ccc(C)cc3)o2)ccc1Cl; test = enzyme activity, inhibitor; conditions = 1 µM; quantity = activity vs control; result = 100%
SMILES = O=C(Nc1ccc(Oc2ncnc3[nH]cc(-c4ccccc4)c23)c(F)c1)c1c2n(n(-c3cc(F)ccc3F)c1=O)CCCC2; test = enzyme activity, inhibitor; conditions = 0.5 µM; quantity = inhibition; result = 19%
SMILES = COc1c(Cl)cccc1Nc1c(-c2ccncc2C#C[C@@]2(C)CCCN2C(=O)/C=C/CN(C)C)[nH]c2c1C(=O)NCC2; test = binding, competition with immobilised ligand; conditions = 3 µM; quantity = remaining binding; result = 26%
SMILES = Cc1cnc2nc1Nc1cccc(c1)COC/C=C/COCc1cc(ccc1OCCN1CCOCC1)N2; test = binding, competition with immobilised ligand; conditions = 0.1 µM; quantity = remaining binding; result = 90%
SMILES = C=CC(=O)N1CCc2ccc(-n3c(=O)ccc4cnc5ccc(-c6cnn(C)c6)cc5c43)cc21; test = KINOMEscan; conditions = 1 µM; how to read = reference: DMSO control; quantity = remaining binding; result = 100%
SMILES = C[C@]1(O)CCCN(c2nc(Nc3ccc(S(=O)(=O)N[C@H]4CC[C@H](CN5CCN(c6ccc(C7CCC(=O)NC7=O)cc6F)CC5)CC4)cc3)ncc2C(F)(F)F)C1 (stereo partly shown); test = binding, competition with immobilised ligand; conditions = 1 µM; quantity = remaining binding; result = 30%
SMILES = COc1cc(Nc2nc(C)cc(-c3cnn4nc(OC)ccc34)n2)cc(C(F)(F)F)c1; test = binding, competition with immobilised ligand; conditions = 1 µM; quantity = remaining binding; result = 96%
SMILES = C=CC(=O)N1CCCC(n2c(=O)c3ncccc3n(Cc3ccc(Oc4ccccc4)cc3)c2=O)C1 (stereo not shown); test = cell-free assay, competition with immobilised ligand; conditions = 1 µM; quantity = remaining binding; result = 95%
SMILES = CCN1CCN(Cc2ccc(C(=O)Nc3ccc(C)c(NCc4cnc5[nH]ccc5c4OC)c3)cc2C(F)(F)F)CC1; test = binding, competition with immobilised ligand; conditions = 1 µM; quantity = remaining binding; result = 46%

For quick reference, copied from above:
SMILES = C=CC(=O)N1CCCC(n2c(=O)c3ncccc3n(Cc3ccc(Oc4ccccc4)cc3)c2=O)C1 (stereo not shown); test = cell-free assay, competition with immobilised ligand; conditions = 1 µM; quantity = remaining binding; result = 95%
